Assay results of several laboratories.
Compare with care: the assays were run in different laboratories. ± marks the error that the study gave.

N.N.O=C([O-])C1(C(=O)[O-])CCC1.[Pt+2]  Cmax (refers to: unbound platinum; human, plasma ultrafiltrate; intravenous, AUC 2, median, dose level -4): 11300 ng/mL
OCc1ncc2n1-c1ccc(Cl)cc1C(c1ccccc1F)=NC2  Cmax (human, plasma; oral, 7.5 mg of midazolam, day 19, geometric mean, no amenamevir): 14.9 ng/mL
Cn1nc(NS(C)(=O)=O)c2c(Cl)ccc(-n3c([C@H](Cc4cc(F)cc(F)c4)NC(=O)Cn4nc(C(F)F)c5c4C(F)(F)[C@@H]4C[C@H]54)nc4nc(OCCC(F)(F)F)ccc4c3=O)c21  Cmax geometric mean ratio (human; oral, dose not given, single dose; reference: tablet over powder in bottle): 0.37
Cc1nnc2n1-c1ccc(Cl)cc1C(c1ccccc1)=NC2  Cmax change (human female; dose not given, day 22; reference: day 0): -5%
O[C@H]1CCCN[C@@H]1CCCn1cnc2c(Cl)c(Cl)ccc21  Cmax (healthy humans, plasma; oral, 150 mg single dose): 238 ng/mL
CC(F)(F)c1cc(F)ccc1-c1sc2cc(O)ccc2c1Oc1ccc(/C=C/C(=O)O)cc1  Increase in Cmax, high-fat meal (human patients, plasma; oral, 450 mg single dose; reference: fasted): ~30%
N[C@@H](Cc1ccc(O)c(O)c1)C(=O)O  Cmax ratio (human, plasma; oral, carbidopa/levodopa every 3 h, added: opicapone; reference: after over before opicapone): 1.44
CNC(=O)n1ccc2cc(Oc3ccnc(NC(=O)c4ccc(C5CCN(CCO)CC5)cc4)c3)c(OCCOC)cc21  Cmax reduction (healthy human, plasma; oral, 35 mg, added: high-fat meal; reference: fasted): 33%
CC(=O)c1c(C)c2cnc(Nc3ccc(C4CCN(CCS(C)(=O)=O)CC4)cn3)nc2n(C2CCCC2)c1=O  Cmax (human, dose-escalation trial, plasma; oral, 100 mg twice daily, day 1, single dose): 172 ng/mL
NCCCC[C@@H]1NC(=O)[C@@H](Cc2c[nH]c3ccccc23)NC(=O)[C@H](c2ccccc2)NC(=O)[C@@H]2C[C@@H](OC(=O)NCCN)CN2C(=O)[C@H](Cc2ccccc2)NC(=O)[C@H](Cc2ccc(OCc3ccccc3)cc2)NC1=O  Cmax at steady state (radioimmunoassay; human, plasma; subcutaneous, 600 µg twice daily, day 5): 24.3 ± 7.2 ng/mL
Cc1ncc2n1-c1ccc(Cl)cc1C(c1ccccc1F)=NC2  Cmax ratio (human, plasma; oral, single dose, added: dose, single, rimegepant 300 mg; reference: with over without rimegepant): 138%
